# Measured values of several laboratories.
# A part holds a random share of what one study measured. Several values in a cell are separate wells, animals, samples, runs or records.
# Chain of UniProt P54753 (whole entry, looked up): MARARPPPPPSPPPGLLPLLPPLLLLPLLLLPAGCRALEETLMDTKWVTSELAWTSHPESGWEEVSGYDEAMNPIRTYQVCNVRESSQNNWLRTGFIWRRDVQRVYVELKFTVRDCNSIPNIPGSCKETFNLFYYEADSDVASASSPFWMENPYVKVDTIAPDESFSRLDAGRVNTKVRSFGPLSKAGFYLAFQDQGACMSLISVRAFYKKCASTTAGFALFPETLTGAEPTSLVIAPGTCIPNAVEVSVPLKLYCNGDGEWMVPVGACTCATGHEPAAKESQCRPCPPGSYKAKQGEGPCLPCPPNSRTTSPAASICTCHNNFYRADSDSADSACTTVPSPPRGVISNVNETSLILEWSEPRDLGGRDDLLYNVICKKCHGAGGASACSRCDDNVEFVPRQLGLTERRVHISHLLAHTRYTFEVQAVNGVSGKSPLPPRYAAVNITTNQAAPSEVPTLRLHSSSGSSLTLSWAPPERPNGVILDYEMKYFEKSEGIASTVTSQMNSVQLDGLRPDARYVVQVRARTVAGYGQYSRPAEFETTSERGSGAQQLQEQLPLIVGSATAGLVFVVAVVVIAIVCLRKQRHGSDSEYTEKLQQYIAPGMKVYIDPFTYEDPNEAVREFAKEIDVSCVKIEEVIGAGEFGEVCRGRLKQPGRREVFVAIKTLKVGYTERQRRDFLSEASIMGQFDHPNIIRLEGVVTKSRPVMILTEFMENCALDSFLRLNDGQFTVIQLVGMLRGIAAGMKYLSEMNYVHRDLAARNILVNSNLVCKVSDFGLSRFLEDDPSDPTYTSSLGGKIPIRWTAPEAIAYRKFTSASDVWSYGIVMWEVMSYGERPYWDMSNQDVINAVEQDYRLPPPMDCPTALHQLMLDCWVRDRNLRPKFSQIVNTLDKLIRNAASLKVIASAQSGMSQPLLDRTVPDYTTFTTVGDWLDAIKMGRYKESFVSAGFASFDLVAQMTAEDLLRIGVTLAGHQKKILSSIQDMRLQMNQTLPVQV
# Chain of UniProt Q9H422 (whole entry, looked up): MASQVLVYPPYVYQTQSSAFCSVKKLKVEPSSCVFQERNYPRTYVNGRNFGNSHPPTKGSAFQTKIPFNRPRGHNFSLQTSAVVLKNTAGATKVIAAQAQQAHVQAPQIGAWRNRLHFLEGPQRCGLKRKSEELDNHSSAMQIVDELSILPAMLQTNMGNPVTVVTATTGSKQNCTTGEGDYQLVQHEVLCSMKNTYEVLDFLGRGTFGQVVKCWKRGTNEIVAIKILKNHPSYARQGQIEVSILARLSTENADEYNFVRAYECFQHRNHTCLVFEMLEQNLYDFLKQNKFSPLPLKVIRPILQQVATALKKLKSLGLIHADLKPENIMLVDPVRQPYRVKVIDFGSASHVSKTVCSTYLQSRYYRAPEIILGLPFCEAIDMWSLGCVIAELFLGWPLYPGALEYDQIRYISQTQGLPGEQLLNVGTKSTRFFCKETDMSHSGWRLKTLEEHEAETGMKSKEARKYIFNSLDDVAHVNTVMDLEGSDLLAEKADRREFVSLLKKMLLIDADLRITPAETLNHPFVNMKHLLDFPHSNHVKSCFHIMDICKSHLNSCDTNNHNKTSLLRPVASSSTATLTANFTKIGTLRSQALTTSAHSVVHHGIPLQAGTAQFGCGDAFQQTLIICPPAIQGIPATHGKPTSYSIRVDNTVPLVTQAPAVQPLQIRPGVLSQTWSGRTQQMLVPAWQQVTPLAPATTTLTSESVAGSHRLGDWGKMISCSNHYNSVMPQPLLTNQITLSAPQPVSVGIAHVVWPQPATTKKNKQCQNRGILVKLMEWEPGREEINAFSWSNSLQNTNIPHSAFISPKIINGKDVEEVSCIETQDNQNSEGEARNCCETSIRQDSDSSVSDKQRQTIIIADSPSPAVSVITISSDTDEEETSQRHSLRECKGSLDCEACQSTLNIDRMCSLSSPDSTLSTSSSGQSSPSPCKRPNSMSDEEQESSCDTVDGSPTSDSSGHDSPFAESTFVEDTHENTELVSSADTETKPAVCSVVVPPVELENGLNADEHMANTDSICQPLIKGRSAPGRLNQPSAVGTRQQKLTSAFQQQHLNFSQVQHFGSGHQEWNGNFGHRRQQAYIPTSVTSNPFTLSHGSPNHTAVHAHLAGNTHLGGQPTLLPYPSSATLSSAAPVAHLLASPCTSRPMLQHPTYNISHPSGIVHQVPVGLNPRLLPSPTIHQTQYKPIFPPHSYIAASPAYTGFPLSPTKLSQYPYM
# Chain of UniProt P53778 (whole entry, looked up): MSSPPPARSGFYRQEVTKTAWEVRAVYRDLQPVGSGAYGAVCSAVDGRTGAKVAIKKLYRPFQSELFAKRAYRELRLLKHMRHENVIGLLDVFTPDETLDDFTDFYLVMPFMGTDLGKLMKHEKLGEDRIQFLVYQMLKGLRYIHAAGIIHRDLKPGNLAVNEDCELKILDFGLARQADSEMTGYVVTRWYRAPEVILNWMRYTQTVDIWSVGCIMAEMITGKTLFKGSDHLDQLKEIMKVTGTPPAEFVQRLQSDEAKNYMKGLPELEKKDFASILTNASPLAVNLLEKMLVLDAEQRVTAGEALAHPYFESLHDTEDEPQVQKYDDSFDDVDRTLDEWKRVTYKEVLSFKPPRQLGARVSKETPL
# Chain of UniProt Q13464 (whole entry, looked up): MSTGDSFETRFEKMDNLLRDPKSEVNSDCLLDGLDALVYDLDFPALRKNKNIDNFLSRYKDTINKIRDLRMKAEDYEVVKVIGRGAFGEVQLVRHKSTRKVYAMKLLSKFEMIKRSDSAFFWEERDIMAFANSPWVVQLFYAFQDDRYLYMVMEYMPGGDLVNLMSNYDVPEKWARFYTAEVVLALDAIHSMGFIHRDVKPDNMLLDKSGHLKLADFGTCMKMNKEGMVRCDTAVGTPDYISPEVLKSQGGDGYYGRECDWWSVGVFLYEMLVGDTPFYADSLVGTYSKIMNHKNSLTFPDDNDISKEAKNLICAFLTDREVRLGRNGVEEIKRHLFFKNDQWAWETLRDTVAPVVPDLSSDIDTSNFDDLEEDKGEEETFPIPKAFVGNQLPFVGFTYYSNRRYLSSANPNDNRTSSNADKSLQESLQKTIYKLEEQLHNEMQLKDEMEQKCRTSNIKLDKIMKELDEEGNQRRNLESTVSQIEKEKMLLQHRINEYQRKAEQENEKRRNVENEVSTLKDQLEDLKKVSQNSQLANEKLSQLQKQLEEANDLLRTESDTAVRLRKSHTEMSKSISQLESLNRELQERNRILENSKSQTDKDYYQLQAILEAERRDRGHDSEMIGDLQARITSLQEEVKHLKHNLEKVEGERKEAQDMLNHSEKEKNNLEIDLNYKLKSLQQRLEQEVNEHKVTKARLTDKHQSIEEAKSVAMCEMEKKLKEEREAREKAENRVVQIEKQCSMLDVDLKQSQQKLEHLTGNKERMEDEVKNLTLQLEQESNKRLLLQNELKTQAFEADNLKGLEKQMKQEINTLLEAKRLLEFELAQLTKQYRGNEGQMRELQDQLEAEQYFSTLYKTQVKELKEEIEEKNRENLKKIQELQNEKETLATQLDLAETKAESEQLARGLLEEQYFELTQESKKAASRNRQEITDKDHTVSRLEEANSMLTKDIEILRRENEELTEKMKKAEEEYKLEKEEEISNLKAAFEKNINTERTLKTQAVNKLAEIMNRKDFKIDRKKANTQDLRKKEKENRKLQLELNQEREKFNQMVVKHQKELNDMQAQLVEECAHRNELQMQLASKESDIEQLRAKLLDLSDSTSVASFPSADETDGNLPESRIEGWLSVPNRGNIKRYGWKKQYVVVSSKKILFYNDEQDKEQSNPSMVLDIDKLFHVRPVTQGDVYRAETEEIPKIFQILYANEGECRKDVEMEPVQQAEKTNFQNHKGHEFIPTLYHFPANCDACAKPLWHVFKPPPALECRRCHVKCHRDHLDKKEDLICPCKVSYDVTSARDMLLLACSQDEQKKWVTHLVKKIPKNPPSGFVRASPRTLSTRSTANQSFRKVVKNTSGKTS
# Chain of UniProt Q14164 (whole entry, looked up): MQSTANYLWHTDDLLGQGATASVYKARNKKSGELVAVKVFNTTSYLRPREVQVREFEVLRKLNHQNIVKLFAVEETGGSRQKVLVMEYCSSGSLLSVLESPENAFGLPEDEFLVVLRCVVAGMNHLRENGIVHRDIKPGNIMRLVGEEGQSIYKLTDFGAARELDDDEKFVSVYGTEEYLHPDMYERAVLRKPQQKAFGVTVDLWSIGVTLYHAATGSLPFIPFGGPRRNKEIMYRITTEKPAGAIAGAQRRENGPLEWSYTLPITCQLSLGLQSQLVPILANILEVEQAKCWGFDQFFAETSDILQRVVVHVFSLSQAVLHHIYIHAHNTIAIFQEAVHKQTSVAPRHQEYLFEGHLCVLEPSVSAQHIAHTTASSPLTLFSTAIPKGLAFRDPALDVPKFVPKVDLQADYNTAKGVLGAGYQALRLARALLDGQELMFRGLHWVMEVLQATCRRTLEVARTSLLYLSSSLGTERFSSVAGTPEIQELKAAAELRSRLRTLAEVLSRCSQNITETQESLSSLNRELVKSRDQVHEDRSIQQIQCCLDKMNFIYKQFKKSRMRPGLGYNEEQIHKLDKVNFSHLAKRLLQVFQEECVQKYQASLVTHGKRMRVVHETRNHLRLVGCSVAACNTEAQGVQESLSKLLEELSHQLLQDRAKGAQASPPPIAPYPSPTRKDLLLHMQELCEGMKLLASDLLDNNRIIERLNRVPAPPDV
# Chain of UniProt P51955 (whole entry, looked up): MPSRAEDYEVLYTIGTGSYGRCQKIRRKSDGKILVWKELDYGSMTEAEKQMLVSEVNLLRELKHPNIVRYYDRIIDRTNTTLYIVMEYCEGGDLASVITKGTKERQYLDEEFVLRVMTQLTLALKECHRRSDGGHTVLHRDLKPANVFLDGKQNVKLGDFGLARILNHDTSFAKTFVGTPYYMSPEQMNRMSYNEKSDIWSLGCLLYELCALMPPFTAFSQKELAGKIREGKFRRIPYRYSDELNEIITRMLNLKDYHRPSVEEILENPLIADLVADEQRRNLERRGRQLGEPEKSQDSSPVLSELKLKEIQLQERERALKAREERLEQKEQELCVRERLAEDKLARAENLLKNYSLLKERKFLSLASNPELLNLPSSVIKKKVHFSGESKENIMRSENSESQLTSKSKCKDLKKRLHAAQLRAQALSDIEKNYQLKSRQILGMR

# Set 1 — read-out: enzyme activity; mode: inhibitor; tested at: 0.5 µM; reference: control
# Compound: O=C(Nc1cccc(Nc2cc(Nc3cccc(C(F)(F)F)c3)ncn2)c1)C1CC1
target,remaining activity [%]
"CAMK2D (Homo sapiens, UniProt Q13557)",101
"Protein kinase C beta type, isoform beta-I (PRKCB, Homo sapiens, UniProt P05771)",93.2
"Cyclin-dependent kinase 5, with p25 (CDK5, Homo sapiens, UniProt Q00535)",99.5
"DAPK1 (Homo sapiens, UniProt P53355)",94.7
"TGFBR2 (Homo sapiens, UniProt P37173)",105
"Cyclin-dependent kinase 4, with cyclin D1 (CDK4, Homo sapiens, UniProt P11802)",103
"IKBKE (Homo sapiens, UniProt Q14164)",97.7
"GRK3 (Homo sapiens, UniProt P35626)",103
"MAP3K3 (Homo sapiens, UniProt Q99759)",95.2
"CAMKK2 (Homo sapiens, UniProt Q96RR4)",98.5
"PRKACA (Homo sapiens, UniProt P17612)",102
"Tyrosine-protein kinase Lyn, isoform B (LYN, Homo sapiens, UniProt P07948)",99.1
"TGFBR1 (Homo sapiens, UniProt P36897)",97.4
"STK39 (Homo sapiens, UniProt Q9UEW8)",94.1

# Set 2 — read-out: cell-free assay; method: competition with immobilised ligand; tested at: 1 µM
# Structure (SMILES): CNCc1ccccc1-c1csc([C@H](C)Nc2nc(C)nc3cc(OC)c(OC)cc23)c1
target,remaining binding [%]
"NEK3 (Homo sapiens, UniProt P51956)",87
"ERN1 (Homo sapiens, UniProt O75460)",100
"EPHB3 (Homo sapiens, UniProt P54753)",100
"ROCK1 (Homo sapiens, UniProt Q13464)",93
"BMPR1A (Homo sapiens, UniProt P36894)",100
"NEK2 (Homo sapiens, UniProt P51955)",92
"Tyrosine-protein kinase ABL1, non-phosphorylated (ABL1, Homo sapiens, UniProt P00519)",87
"MAPK12 (Homo sapiens, UniProt P53778)",100
"HIPK3 (Homo sapiens, UniProt Q9H422)",97
"RIPK4 (Homo sapiens, UniProt P57078)",75

# Set 3 — method: LC-MS/MS; matrix: plasma
# Compound: COc1ccc(-c2c(Nc3ccccn3)[nH]c3c(C4=CCCCC4)c(-c4ccccc4)nn3c2=O)cc1
assay,system,setting,plasma concentration [ng/mL]
item: S-adenosylmethionine,human cancer patients,"200 mg BID, 8 h, mean, cycle 1 day 200",11.8
item: S-adenosylmethionine,human cancer patients,"50 mg QD, 8 h, median, cycle 1 day 50",18.2
item: S-adenosylmethionine,human cancer patients,"50 mg QD, 4 h, mean, cycle 1 day 50",22.1
item: S-adenosylmethionine,human cancer patients,"50 mg QD, 2 h, median, cycle 1 day 50",19.4
item: methionine,human cancer patients,"200 mg BID, 0 h, median, cycle 1 day 200",85400
item: S-adenosylmethionine,human cancer patients,"200 mg BID, 4 h, median, cycle 1 day 200",12.8
item: methionine,human cancer patients,"QD, dose not given, 0 h, geometric mean, cycle 1 day 50",64800
,human,"oral, 200 mg twice daily, 1 h, mean",12600

# Set 4 — route: subcutaneous; dose: 0.3 mg/kg/day DON equivalent; time: 5 days; direction: higher = more metabolite
# SMILES: CC(=O)N[C@@H](Cc1c[nH]c2ccccc12)C(=O)N[C@@H](CCC(=O)C=[N+]=[N-])C(=O)OC(C)C
assay,system,metabolite peak area
"UPLC-MS/MS metabolomics, item: fumarate","EL4, C57BL/6 CES1-/- mice, EL4 tumour, tumour",1.15e+08 a.u. and 1.9e+08 a.u. and 1.64e+08 a.u. and 1.07e+08 a.u. and 1.63e+08 a.u. and 1.67e+08 a.u.
"UPLC-MS/MS, item: 2'-UMP","C57BL/6 CES1-/- mice, EL4 tumour",283000 a.u. and 286000 a.u. and 167000 a.u. and 255000 a.u. and 133000 a.u. and 314000 a.u.
"UPLC-MS/MS, item: uracil","C57BL/6 CES1-/- mice, EL4 tumour",2.07e+08 a.u. and 2.91e+08 a.u. and 2.74e+08 a.u. and 1.74e+08 a.u. and 2.54e+08 a.u. and 2.66e+08 a.u.
"UPLC-MS/MS metabolomics, item: dimethylarginine (ADMA + SDMA)","EL4, C57BL/6 CES1-/- mice, EL4 tumour, tumour",7.07e+08 a.u. and 8.37e+08 a.u. and 7.84e+08 a.u. and 5.87e+08 a.u. and 8.93e+08 a.u. and 7.63e+08 a.u.
"UPLC-MS/MS, item: 2-aminophenol sulfate","C57BL/6 CES1-/- mice, EL4 tumour",79900 a.u. and 71500 a.u. and 35400 a.u. and 77000 a.u. and 139000 a.u. and 103000 a.u.
"UPLC-MS/MS metabolomics, item: cysteine-glutathione disulfide","EL4, C57BL/6 CES1-/- mice, EL4 tumour, tumour",9.21e+07 a.u. and 4.68e+07 a.u. and 4.75e+07 a.u. and 3.46e+07 a.u. and 2.82e+07 a.u. and 6.09e+07 a.u.
"UPLC-MS/MS, item: 3'-UMP","C57BL/6 CES1-/- mice, EL4 tumour",900000 a.u. and 662000 a.u. and 363000 a.u. and 885000 a.u. and 474000 a.u. and 724000 a.u.
